Measurements gathered from unrelated publications.
Parts stem from different laboratories: compare values within a part only.
UniProt Q9UQM7, sequence (whole entry, looked up): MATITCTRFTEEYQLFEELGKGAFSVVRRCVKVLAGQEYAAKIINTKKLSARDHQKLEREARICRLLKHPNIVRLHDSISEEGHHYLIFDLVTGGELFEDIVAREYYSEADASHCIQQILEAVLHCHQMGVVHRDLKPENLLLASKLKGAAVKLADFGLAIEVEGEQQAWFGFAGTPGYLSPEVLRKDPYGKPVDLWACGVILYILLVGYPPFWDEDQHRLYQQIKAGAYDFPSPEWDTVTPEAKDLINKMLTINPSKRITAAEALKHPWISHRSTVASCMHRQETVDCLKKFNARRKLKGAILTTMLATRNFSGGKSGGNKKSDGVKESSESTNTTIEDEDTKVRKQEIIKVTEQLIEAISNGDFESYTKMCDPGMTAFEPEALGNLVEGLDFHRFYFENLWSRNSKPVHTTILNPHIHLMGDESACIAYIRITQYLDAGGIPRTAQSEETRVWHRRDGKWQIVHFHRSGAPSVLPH
UniProt O14757, sequence (whole entry, looked up): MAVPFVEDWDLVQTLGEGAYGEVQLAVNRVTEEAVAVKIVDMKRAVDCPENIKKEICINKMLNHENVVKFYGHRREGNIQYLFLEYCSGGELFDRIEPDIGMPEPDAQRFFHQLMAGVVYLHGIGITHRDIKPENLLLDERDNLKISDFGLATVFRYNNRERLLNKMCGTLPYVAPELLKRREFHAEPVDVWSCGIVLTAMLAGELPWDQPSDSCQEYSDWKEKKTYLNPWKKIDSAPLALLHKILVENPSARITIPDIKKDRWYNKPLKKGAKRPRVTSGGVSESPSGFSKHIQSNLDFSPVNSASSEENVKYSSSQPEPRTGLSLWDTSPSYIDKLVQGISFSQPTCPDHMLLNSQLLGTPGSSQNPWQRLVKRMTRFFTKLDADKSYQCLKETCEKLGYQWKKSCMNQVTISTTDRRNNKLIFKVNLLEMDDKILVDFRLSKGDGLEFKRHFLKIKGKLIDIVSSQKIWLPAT
UniProt P53778, sequence (whole entry, looked up): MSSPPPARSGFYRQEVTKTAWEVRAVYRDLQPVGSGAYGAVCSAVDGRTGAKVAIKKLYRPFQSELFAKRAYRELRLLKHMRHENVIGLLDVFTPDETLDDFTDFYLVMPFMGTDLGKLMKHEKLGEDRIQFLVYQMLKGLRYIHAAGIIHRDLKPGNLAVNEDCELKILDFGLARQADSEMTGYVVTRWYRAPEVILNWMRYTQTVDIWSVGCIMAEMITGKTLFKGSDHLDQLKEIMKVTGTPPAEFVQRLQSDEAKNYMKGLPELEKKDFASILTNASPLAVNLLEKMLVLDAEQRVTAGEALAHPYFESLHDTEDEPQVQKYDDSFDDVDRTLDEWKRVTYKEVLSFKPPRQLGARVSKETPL
UniProt P00519, sequence (whole entry, unmodified, looked up): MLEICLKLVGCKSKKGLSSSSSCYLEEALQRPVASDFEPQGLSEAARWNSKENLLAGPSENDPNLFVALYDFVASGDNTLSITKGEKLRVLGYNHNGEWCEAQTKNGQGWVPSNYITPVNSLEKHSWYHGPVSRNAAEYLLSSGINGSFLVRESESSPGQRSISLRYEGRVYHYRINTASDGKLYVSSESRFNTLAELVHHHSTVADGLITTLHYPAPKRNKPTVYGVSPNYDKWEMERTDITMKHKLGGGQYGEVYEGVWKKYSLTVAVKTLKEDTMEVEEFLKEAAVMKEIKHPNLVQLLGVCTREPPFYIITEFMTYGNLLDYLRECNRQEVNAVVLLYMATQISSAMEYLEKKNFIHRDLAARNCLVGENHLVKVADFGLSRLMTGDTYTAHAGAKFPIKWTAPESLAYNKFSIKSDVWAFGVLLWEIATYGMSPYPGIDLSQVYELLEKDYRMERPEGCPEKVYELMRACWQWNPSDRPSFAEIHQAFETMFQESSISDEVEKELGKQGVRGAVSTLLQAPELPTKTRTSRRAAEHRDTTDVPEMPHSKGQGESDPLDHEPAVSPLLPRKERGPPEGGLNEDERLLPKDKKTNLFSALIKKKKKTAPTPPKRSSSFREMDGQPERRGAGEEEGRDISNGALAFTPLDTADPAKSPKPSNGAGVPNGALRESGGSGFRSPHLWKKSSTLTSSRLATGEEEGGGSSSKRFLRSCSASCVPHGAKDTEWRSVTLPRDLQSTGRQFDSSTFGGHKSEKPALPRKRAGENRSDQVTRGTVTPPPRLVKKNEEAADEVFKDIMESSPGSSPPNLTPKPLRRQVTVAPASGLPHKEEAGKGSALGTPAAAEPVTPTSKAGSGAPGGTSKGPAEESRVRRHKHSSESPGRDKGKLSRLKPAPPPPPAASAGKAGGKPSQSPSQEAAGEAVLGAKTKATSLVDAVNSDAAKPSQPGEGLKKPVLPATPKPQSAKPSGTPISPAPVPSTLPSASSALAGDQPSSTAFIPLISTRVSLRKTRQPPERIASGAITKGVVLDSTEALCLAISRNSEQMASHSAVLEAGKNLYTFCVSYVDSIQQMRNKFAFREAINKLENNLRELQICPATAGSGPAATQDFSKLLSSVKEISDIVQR
UniProt P07949, sequence (whole entry, looked up): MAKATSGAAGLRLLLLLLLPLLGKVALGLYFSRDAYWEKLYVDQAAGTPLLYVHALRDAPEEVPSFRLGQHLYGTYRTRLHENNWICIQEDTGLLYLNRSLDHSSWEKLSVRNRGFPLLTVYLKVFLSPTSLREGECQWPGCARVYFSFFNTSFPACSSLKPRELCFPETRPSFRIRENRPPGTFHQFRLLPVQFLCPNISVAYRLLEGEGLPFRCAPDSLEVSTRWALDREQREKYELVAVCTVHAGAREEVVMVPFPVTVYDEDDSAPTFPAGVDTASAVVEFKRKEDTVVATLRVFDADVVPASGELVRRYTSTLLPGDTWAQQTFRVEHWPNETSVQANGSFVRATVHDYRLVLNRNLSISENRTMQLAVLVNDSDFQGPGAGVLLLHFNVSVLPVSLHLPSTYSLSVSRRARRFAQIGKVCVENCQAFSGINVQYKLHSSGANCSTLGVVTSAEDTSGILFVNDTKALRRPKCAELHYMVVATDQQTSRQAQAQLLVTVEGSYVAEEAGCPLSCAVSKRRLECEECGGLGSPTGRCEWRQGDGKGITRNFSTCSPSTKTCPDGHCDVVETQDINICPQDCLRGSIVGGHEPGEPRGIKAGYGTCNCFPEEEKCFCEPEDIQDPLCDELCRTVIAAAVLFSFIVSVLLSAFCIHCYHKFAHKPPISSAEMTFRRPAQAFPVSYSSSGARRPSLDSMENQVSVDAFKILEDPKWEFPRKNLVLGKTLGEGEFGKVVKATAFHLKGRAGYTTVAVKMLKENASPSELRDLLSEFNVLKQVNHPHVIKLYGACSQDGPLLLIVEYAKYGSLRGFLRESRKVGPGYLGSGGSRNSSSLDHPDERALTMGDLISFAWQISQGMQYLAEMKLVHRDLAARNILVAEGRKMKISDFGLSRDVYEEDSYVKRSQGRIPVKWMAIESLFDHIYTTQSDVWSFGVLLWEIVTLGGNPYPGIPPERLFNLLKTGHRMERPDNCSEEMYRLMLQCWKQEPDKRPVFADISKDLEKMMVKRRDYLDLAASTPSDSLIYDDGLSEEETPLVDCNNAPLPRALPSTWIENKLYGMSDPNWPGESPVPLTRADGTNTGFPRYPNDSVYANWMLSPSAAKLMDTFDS
UniProt Q14164, sequence (whole entry, looked up): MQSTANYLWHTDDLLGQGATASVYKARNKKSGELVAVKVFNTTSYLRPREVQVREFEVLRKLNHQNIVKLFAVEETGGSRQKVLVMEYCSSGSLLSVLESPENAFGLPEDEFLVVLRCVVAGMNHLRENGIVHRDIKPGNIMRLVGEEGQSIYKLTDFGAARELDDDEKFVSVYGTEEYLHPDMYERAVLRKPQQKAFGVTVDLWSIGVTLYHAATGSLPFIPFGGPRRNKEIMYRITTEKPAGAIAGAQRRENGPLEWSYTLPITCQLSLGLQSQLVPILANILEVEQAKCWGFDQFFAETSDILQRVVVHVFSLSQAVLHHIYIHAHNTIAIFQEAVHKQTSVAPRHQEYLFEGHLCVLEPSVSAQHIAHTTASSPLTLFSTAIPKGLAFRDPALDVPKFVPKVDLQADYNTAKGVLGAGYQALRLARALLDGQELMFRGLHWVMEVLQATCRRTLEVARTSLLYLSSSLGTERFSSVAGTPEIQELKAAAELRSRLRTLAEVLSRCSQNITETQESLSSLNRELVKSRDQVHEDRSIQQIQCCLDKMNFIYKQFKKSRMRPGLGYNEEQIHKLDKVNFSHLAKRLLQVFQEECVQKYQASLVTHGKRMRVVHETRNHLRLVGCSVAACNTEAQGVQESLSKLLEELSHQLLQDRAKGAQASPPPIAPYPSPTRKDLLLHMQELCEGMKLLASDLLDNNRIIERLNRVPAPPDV
UniProt O14730, sequence (whole entry, looked up): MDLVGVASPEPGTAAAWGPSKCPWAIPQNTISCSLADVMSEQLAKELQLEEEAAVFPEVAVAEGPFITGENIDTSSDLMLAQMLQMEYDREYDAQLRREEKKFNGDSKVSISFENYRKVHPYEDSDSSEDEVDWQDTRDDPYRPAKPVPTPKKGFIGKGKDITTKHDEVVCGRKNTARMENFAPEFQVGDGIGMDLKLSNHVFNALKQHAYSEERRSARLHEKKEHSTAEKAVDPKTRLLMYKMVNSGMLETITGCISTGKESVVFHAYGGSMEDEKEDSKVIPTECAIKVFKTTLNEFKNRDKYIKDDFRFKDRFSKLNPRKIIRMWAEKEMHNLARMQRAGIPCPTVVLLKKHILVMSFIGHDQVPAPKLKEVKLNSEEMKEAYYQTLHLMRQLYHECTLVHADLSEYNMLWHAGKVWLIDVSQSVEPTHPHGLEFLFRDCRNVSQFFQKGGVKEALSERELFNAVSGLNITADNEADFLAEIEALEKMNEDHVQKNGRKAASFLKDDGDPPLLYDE

Set 1
SMILES: CNCc1ccccc1-c1csc([C@@H](C)Nc2nc(C)nc3cc(OC)c(OC)cc23)c1
Method: competition with immobilised ligand
Tested at: 1 µM
target | test | remaining binding [%]
Calcium/calmodulin-dependent protein kinase type II subunit alpha (CAMK2A, Homo sapiens, UniProt Q9UQM7) | cell-free assay | 99
Cyclin-dependent kinase 4 (CDK4, Homo sapiens, UniProt P11802) | cell-free assay | 100
Serine/threonine-protein kinase RIO3 (RIOK3, Homo sapiens, UniProt O14730) | cell-free assay | 94
Proto-oncogene tyrosine-protein kinase receptor Ret (RET, Homo sapiens, UniProt P07949) | cell-free assay | 86
Platelet-derived growth factor receptor beta (PDGFRB, Homo sapiens, UniProt P09619) | cell-free assay | 91
Serine/threonine-protein kinase Chk1 (CHEK1, Homo sapiens, UniProt O14757) | cell-free assay | 92
Tyrosine-protein kinase receptor Tie-1 (TIE1, Homo sapiens, UniProt P35590) | cell-free assay | 100
Tyrosine-protein kinase ABL1, phosphorylated (ABL1, Homo sapiens, UniProt P00519, E255K) | binding | 75
Inhibitor of nuclear factor kappa-B kinase subunit epsilon (IKBKE, Homo sapiens, UniProt Q14164) | cell-free assay | 71
Ribosomal protein S6 kinase alpha-5, C-terminal kinase domain (RPS6KA5, Homo sapiens, UniProt O75582) | cell-free assay | 89
Mitogen-activated protein kinase kinase kinase kinase 3 (MAP4K3, Homo sapiens, UniProt Q8IVH8) | cell-free assay | 99
Serine/threonine-protein kinase STK11 (STK11, Homo sapiens, UniProt Q15831) | cell-free assay | 96
Tyrosine-protein kinase FRK (FRK, Homo sapiens, UniProt P42685) | cell-free assay | 100
Tyrosine-protein kinase Fer (FER, Homo sapiens, UniProt P16591) | cell-free assay | 100
Serine/threonine-protein kinase MRCK beta (CDC42BPB, Homo sapiens, UniProt Q9Y5S2) | cell-free assay | 89
Glycogen synthase kinase-3 beta (GSK3B, Homo sapiens, UniProt P49841) | cell-free assay | 90
Mast/stem cell growth factor receptor Kit (KIT, Homo sapiens, UniProt P10721, A829P) | cell-free assay | 87
Dual specificity tyrosine-phosphorylation-regulated kinase 1B (DYRK1B, Homo sapiens, UniProt Q9Y463) | cell-free assay | 64
Mitogen-activated protein kinase 15 (MAPK15, Homo sapiens, UniProt Q8TD08) | cell-free assay | 100
Platelet-derived growth factor receptor alpha (PDGFRA, Homo sapiens, UniProt P16234) | cell-free assay | 84

Set 2
SMILES: CC(C)n1cnc(-c2ccc(F)cc2)c1-c1ncc(C(=O)Nc2ccc(N3CCN(C)CC3)cc2)[nH]1
Species: idiopathic pulmonary fibrosis patients
Sample: plasma
setting | Cmax
60 mg once daily, week 0, median | 242 ng/mL
30 mg once daily, week 12, median | 104 ng/mL
oral, 60 mg once daily, week 0, arithmetic mean | 266 ng/mL
30 mg once daily, week 0, median | 102 ng/mL
oral, 60 mg once daily, week 12, arithmetic mean | 312 ng/mL
30 mg twice daily, week 12, median | 104 ng/mL
oral, 30 mg once daily, week 0, arithmetic mean | 104 ng/mL
30 mg twice daily, week 12, arithmetic mean | 118 ng/mL

Set 3
Structure (SMILES): NC(=O)c1ccc(-c2nc(-c3ccc4c(c3)OCCO4)c(-c3ccccn3)[nH]2)cc1
Observed: enzyme activity
Action: inhibitor
Tested at: 0.5 µM
Baseline: control
target | remaining activity
Mitogen-activated protein kinase 13 (MAPK13, Homo sapiens, UniProt O15264) | 99.5%
Serine/threonine-protein kinase Nek4 (NEK4, Homo sapiens, UniProt P51957) | 98.2%
cGMP-dependent protein kinase 1 (PRKG1, Homo sapiens, UniProt Q13976) | 95%
Mitogen-activated protein kinase kinase kinase 10 (MAP3K10, Homo sapiens, UniProt Q02779) | 94.4%
Serine/threonine-protein kinase Chk1 (CHEK1, Homo sapiens, UniProt O14757) | 167%
Tyrosine-protein kinase BTK (BTK, Homo sapiens, UniProt Q06187) | 91.6%
Casein kinase I isoform alpha (CSNK1A1, Homo sapiens, UniProt P48729) | 37.1%
Leucine-rich repeat serine/threonine-protein kinase 2 (LRRK2, Homo sapiens, UniProt Q5S007) | 105%
Mitogen-activated protein kinase 12 (MAPK12, Homo sapiens, UniProt P53778) | 102%
Dual specificity mitogen-activated protein kinase kinase 6 (MAP2K6, Homo sapiens, UniProt P52564) | 107%
RAC-gamma serine/threonine-protein kinase (AKT3, Homo sapiens, UniProt Q9Y243) | 101%

Set 4
Target: Calcium/calmodulin-dependent protein kinase type II subunit alpha (CAMK2A, Homo sapiens, UniProt Q9UQM7)
Observed: enzyme activity
Action: inhibitor
Tested at: 10 µM
Compound | inhibition [%]
CNS(=O)(=O)CCc1ccc2[nH]cc(C3CCN(C)CC3)c2c1 | -6
Cn1cc(C(=O)[C@@H]2CCc3nc[nH]c3C2)c2ccccc21 | -10
O=Cc1c[nH]c2cccc(O)c12 | -82
CC(=O)NCCc1ccc(O)c(O)c1 | -25
O=C(C1CCCCC1)N1CC(=O)N2CCc3ccccc3C2C1 (centres unmarked) | -3
CC1CCC2(OC1)OC1CC3C4CC=C5CC(OC6OC(CO)C(OC7OC(CO)C(O)C7O)C(OC7OC(C)C(O)C(O)C7O)C6O)CCC5(C)C4CCC3(C)C1C2C (centres unmarked) | -15
CCCCN(CCCC)CC(O)c1cc(Cl)cc2c1-c1ccc(Cl)cc1/C2=C/c1ccc(Cl)cc1 (centres unmarked) | -1
CC(NCCC(c1ccccc1)c1ccccc1)c1ccccc1 (centres unmarked) | 14
